Measured values gathered from unrelated publications.
Each line is one published result; not all experiments were run side by side. Values joined by “and” are separate records of one study, mostly repeats; a detail may differ. ± gives the spread as reported.
AKR1B1: Aldo-keto reductase family 1 member B1 (AKR1B1, Homo sapiens, UniProt P15121)
pyrD: Dihydroorotate dehydrogenase (quinone) (pyrD, Acinetobacter baumannii, UniProt B7GZW7)
Sequence of UniProt B7GZW7 (whole entry, looked up): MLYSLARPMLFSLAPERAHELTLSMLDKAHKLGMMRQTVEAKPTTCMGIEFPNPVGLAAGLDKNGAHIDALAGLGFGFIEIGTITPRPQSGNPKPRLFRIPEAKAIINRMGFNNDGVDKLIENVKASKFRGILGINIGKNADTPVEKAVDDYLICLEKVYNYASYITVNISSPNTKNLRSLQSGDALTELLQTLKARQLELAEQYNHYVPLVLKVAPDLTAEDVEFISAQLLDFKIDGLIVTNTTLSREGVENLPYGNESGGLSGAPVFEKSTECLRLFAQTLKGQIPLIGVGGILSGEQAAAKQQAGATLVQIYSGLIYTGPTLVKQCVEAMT
Kir3.1/Kir3.4: Kir3.1/Kir3.4 (Homo sapiens, UniProt P48544+P48549)
Sequence of UniProt P48549 (whole entry, looked up): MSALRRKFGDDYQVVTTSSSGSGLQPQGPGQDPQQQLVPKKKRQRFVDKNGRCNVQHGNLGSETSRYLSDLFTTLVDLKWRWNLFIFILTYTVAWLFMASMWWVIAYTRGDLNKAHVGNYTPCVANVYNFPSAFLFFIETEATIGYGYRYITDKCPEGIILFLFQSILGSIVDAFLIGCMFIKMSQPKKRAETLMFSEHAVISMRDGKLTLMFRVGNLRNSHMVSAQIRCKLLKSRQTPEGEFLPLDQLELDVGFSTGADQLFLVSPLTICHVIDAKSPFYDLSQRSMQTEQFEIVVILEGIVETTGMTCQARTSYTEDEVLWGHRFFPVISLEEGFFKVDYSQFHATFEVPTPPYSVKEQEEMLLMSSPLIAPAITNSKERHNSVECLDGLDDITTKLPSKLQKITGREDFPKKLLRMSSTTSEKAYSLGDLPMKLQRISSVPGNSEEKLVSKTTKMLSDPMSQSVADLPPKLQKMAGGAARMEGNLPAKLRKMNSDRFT
Sequence of UniProt P48544 (whole entry, looked up): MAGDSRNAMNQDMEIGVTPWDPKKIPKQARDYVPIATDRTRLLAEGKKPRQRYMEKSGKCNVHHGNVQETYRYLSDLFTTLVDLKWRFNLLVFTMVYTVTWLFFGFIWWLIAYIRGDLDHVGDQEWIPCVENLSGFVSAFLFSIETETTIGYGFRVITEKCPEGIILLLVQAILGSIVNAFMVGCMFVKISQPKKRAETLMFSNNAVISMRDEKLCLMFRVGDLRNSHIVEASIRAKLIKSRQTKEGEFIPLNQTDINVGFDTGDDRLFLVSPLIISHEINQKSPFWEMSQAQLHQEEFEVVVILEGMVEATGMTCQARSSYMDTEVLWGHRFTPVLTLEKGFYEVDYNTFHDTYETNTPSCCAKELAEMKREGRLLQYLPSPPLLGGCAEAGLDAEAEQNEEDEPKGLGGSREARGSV
T1: riboswitch RNA yjdF aptamer domain (Bacillus subtilis); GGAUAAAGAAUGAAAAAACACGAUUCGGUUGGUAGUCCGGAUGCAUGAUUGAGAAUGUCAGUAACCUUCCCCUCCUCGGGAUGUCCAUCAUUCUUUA
Sequence of UniProt Q16774 (whole entry, unmodified, looked up): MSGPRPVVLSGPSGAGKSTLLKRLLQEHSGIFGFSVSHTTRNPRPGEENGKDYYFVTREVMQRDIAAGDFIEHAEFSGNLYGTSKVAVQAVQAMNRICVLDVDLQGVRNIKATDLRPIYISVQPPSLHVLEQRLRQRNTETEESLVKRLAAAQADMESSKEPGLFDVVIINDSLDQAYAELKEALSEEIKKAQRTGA
Sequence of UniProt P51575 (whole entry, unmodified, looked up): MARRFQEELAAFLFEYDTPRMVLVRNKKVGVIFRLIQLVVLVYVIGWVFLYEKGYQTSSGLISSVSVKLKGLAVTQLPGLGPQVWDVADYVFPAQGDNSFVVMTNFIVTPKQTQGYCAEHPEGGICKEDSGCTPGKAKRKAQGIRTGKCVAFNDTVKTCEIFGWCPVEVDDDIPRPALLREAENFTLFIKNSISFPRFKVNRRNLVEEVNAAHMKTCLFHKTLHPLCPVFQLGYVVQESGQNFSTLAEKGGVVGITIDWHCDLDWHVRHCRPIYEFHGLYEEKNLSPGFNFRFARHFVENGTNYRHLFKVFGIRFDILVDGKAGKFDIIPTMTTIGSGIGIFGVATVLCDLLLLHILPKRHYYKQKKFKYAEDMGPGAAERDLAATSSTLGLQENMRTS
Sequence of UniProt Q64663 (whole entry, unmodified, looked up): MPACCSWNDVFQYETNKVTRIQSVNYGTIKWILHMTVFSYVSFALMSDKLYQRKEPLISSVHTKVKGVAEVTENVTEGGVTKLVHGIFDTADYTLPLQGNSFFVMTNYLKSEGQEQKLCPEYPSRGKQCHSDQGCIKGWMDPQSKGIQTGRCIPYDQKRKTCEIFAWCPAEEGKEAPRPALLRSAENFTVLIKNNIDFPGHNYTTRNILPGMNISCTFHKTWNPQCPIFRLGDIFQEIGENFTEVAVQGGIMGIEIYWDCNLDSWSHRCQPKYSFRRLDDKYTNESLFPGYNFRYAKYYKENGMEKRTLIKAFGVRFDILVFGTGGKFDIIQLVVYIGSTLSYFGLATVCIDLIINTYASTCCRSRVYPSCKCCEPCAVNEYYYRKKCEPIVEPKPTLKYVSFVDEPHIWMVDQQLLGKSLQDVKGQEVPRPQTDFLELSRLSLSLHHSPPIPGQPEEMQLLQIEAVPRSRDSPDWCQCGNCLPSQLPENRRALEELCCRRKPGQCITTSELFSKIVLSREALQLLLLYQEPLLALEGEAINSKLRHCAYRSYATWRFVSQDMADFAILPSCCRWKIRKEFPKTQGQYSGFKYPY
Sequence of UniProt Q13936 (whole entry, looked up): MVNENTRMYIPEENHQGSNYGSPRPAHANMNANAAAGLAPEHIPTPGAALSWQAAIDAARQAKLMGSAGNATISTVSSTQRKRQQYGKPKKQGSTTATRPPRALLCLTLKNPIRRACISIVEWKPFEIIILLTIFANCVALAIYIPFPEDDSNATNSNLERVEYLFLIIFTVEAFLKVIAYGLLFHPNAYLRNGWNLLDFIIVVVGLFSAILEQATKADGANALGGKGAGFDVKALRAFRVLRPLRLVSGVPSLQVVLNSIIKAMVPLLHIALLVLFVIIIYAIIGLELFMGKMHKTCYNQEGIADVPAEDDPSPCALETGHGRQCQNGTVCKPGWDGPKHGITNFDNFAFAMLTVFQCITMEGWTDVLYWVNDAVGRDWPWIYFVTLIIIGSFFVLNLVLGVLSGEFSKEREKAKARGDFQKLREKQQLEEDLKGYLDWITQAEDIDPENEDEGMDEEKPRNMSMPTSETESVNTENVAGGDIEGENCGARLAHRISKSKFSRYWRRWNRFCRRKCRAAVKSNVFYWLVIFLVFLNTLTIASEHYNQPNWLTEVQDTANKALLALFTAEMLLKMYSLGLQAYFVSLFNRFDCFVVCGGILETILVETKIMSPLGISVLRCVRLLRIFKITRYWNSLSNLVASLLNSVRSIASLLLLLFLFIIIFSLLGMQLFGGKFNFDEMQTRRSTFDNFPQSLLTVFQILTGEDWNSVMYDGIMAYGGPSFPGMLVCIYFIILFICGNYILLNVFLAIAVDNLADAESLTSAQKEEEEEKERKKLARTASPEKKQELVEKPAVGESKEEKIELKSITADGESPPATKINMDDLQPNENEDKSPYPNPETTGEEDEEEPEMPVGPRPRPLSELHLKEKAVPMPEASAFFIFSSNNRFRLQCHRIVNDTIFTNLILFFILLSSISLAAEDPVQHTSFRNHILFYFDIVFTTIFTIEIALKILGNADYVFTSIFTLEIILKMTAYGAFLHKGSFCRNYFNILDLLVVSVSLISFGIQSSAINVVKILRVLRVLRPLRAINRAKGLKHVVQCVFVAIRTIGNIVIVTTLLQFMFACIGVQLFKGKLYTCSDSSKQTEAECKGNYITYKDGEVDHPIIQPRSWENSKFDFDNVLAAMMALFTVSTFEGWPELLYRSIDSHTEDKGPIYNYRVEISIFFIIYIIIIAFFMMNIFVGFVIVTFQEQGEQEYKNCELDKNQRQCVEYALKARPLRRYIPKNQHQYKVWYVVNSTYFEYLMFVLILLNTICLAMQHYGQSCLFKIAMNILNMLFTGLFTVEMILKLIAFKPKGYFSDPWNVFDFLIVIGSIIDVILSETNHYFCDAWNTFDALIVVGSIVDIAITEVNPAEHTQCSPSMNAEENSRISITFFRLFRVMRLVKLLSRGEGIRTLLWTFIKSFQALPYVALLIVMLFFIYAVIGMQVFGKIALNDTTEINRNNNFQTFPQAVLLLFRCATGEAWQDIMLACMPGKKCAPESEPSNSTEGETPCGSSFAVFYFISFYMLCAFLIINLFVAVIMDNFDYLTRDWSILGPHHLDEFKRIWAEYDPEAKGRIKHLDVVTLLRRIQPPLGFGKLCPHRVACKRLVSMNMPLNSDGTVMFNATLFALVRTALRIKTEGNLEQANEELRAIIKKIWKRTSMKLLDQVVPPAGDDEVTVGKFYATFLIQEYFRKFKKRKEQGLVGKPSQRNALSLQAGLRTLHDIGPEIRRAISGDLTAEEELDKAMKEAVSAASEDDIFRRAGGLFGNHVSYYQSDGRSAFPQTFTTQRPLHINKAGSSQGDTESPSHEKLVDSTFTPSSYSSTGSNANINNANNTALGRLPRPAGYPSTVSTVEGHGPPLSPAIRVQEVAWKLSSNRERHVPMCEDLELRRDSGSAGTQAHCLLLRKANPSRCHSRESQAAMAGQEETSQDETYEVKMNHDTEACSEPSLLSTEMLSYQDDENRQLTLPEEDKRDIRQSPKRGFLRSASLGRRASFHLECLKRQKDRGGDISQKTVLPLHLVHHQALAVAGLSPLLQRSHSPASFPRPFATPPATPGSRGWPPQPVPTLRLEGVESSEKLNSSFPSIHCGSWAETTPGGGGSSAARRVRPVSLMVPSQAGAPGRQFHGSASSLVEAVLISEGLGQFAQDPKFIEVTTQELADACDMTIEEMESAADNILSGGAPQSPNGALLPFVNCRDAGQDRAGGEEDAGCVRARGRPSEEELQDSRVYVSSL
Sequence of UniProt P43119 (whole entry, looked up): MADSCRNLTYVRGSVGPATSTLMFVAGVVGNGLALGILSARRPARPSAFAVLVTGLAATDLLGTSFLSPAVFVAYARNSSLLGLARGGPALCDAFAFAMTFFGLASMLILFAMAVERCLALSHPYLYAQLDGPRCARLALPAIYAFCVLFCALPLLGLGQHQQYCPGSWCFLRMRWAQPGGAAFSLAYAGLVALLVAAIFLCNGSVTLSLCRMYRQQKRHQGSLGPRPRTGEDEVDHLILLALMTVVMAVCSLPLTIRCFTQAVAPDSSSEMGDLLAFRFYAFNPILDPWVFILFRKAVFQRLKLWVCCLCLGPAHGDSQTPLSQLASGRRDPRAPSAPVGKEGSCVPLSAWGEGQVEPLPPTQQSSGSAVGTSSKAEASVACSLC

Compound | target | assay | system | conditions | how to read | endpoint | value
COc1ccc(/C=C2\SC(=O)N(Cc3nc4ccccc4s3)C2=O)cc1OC | AKR1B1 | enzyme activity, inhibitor | – | – | – | log IC50 | 2.66 log nM
O=C(COP(=O)(O)O)[C@@H](O)[C@H](O)[C@H](O)COP(=O)(O)O | DNAJA1 (Homo sapiens, UniProt P31689) | thermal proteome profiling | HepG2 cell lysate | concentration not given, 57 over 37 °C, mean | baseline: compound over control | thermal stability ratio | 0.662
NC(N)=NCCC[C@H](N)C(=O)Nc1ccc2ccccc2c1 | rat aminopeptidase III | substrate | – | – | – | Km | 6.7 µM
Cc1cc(NC2Cc3cccc(F)c3C2)n2nc(C(C)(F)F)nc2n1 (centres unmarked) | pyrD | enzyme activity, inhibitor, colorimetric HTS, item: DCIP reduction | – | 3 µM | direction not given | robust Z-score | 19.7
COc1cc(NC(=O)c2cscn2)ccc1/N=N/c1ccccc1Cl | GRM3 (Homo sapiens, UniProt Q14832) | positive allosteric modulator, IP accumulation | HEK293 | 30 µM, in the dark, together with: low-dose orthosteric agonist | – | activation | -35.4%
COc1cc(/C=C2\SC(=O)N(CC(=O)c3ccc([N+](=O)[O-])cc3)C2=O)cc(OC)c1OC | AKR1B1 | enzyme activity, inhibitor | – | – | – | Hill slope | -0.461
Cc1ccc2c(c1)sc(-c1ccc(N(C)C)cc1)[n+]2C | T1, riboswitch RNA yjdF aptamer domain (Bacillus subtilis) | fluorescence titration | – | – | – | Kd | 0.039 µM
O=c1nc(SCc2cc(F)cc(C(F)(F)F)c2)nc(SCc2ccc3sccc3c2)[nH]1 | TOP2A (Homo sapiens, UniProt P11388) | DNA cleavage | – | 7.8 µM, replicate 2 | – | linear DNA | 0%
Nc1nc2c(ncn2[C@@H]2O[C@H](COP(=O)(O)O)[C@@H](O)[C@H]2O)c(=O)[nH]1 | GUK1 (Homo sapiens, UniProt Q16774, E72A) | enzyme activity, NADH-coupled | – | 31.25 µM | – | reaction rate | -0.639 s⁻¹ and -0.126 s⁻¹ and -0.559 s⁻¹
Cn1nnc2ccc(NC(=O)c3cccc(C(=O)O)c3)cc21 | CREB-binding protein, bromodomain (CREBBP, Homo sapiens, UniProt Q92793) | binding | – | – | – | ligand efficiency | 0.3
NC/C(=C\F)COc1cccc(Cn2c(=S)[nH]c(=O)c3[nH]cnc32)c1 | CACNA1C (Homo sapiens, UniProt Q13936) | peak ramp current, inhibitor, patch clamp | human cells | 100 µM, pulse 10 | – | inhibition | 44.2% and 24.5%
CC/C=C(\C)C=O | Enoyl-ACP reductase (Thermus thermophilus, UniProt P83818) | substrate, biocatalytic transformation | – | pH 7, 30 °C, anaerobic, together with: NADPH | – | conversion | 27%
[O-][S+]1CCCCS1 (centres unmarked) | SOD1 (Homo sapiens, UniProt P00441, G94A) | intact protein LC-MS | SOD1 G93A transgenic mice, whole blood | intravenous, 10 mg/kg, 2 h, mean of two mice | – | target engagement | 55.7%
CCN(CC)c1ccc(C(=O)NCCc2c(C)[nH]c3ccccc23)cc1 | PTGIR (Homo sapiens, UniProt P43119) | IP accumulation, antagonist, Schild analysis, single concentration | C6 glioma cells overexpressing receptor | 10 µM | – | KB | < 10 mM
Nc1ccn([C@H]2C[C@H](O)[C@@H](COP(=O)(O)OP(=O)(O)OP(=O)(O)O)O2)c(=O)n1 | DNA polymerase beta (POLB, Homo sapiens, UniProt P06746) | substrate | – | undamaged template | – | kcat | 0.000417 s⁻¹
Nc1ncnc2c1ncn2[C@@H]1O[C@H](COP(=O)(O)OP(=O)(O)O)[C@@H](O)[C@H]1O | GUK1 (Homo sapiens, UniProt Q16774) | binding, isothermal titration calorimetry | – | molar ratio 0.4975, fitted curve | – | ΔH | -2.5 kcal/mol
Cc1cc(Nc2ccc(C(F)(F)F)cc2)n2nc(S(C)(=O)=O)nc2n1 | pyrD | enzyme activity, inhibitor, colorimetric HTS, item: DCIP reduction | – | 3 µM | direction not given | robust Z-score | 17.4
C=CC(=O)N1CCC(COCC(=O)N2CCN(c3nc(-c4cnc(N)nc4C(F)F)nc(N4CCOC[C@@H]4C)n3)CC2)CC1 | CASK (Homo sapiens, UniProt O14936) | KINOMEscan | – | 1 µM | – | remaining binding | 93%
CCOc1nc2nc(C)cc(Nc3ccc(C(F)(F)F)c(F)c3)n2n1 | pyrD | enzyme activity, inhibitor, colorimetric HTS, item: DCIP reduction | – | 3 µM | direction not given | robust Z-score | 21.4

Compound | target | assay | system | conditions | how to read | endpoint | value
NCCS(=O)(=O)O | SLC6A6 (Homo sapiens, UniProt P31641, Y138A) | binding, microscale thermophoresis | – | 1.95 µM, room temperature, together with: 50 nM labelled protein | higher = more binding | normalised MST signal | -0.0477
CCCCC/C=C\C/C=C\CCCCCCCC(=O)O | Cytochrome P450 2J2 (CYP2J2, Homo sapiens, UniProt P51589, L2A) | substrate, item: total metabolites | – | – | – | Vmax | 146 ± 17 pmol/min/nmol CYP2J2
O=C(COc1ccc(C(F)(F)F)cc1C(F)(F)F)Nc1cc(C2CCC2)nn1C1CCC(F)(F)CC1 | Kir3.1/Kir3.4 | thallium flux, activator | HEK293 | – | baseline: standard compound | Emax | < 10%
COc1cc(/C=C/c2ccc(O)cc2)cc(OC)c1 | O-methyltransferase (Sorghum bicolor, UniProt A0A1B6PFV1) | ITC | – | one set of sites, together with: SFG | – | ∆H | -7.62 ± 0.784 kcal/mol
O=C(O)c1ccc(Nc2ncc3c(n2)-c2ccc(Cl)cc2C(c2c(F)cccc2F)=NC3)cc1 | Abl(h) | kinase activity | – | 1 µM | – | remaining activity | 24%
O=c1cc(-c2ccc([N+](=O)[O-])cc2)[nH]c2c(-c3ccc(Cl)cc3)c(Cc3ccccc3)nn12 | SR-related and CTD-associated factor 8 (SCAF8, Homo sapiens, UniProt Q9UPN6) | thermal stability, binder, thermal proteome profiling | RD, cell lysate | 50 µM, 0.5% DMSO | baseline: DMSO vehicle | melting temperature shift | 3.2 °C
Nc1ncnc2c1ncn2[C@@H]1O[C@H](COP(=O)(O)CP(=O)(O)OP(=O)(O)O)[C@@H](O)[C@H]1O | P2X purinoceptor 1 (P2RX1, Homo sapiens, UniProt P51575, R139P) | calcium influx | – | 31.6 nM | baseline: ionomycin response | calcium influx | 1.21% and 1.83% and 1.01%
C[C@]12C[C@H](O)[C@H]3[C@@H](CCC4=CC(=O)CC[C@@]43C)[C@@H]1CC[C@@H]2C(=O)CO | CYP11B1 (Homo sapiens, UniProt P15538) | substrate | – | 100 µM, 37 °C, phospholipid vesicles | – | 18-hydroxylation product formation rate | 1.2 ± 0.1 min⁻¹
Cc1cc(NC(=O)CNC2CCNCC2)n(C2CCS(=O)(=O)C2)n1 (centres unmarked) | Kir3.1/Kir3.4 | activator, thallium flux | HEK293 | concentration not given | – | activity | inactive
N[C@@H](Cc1ccccc1)C(=O)Nc1ccc2ccccc2c1 | rat aminopeptidase III | substrate | – | – | – | Km | 25 µM
CC(C)C[C@H](N)C(=O)O | snf (Aquifex aeolicus, UniProt O67854, L400A) | scintillation proximity | – | concentration not given, 400 nM protein | – | binding stoichiometry | 0.81 ± 0.05 mol/mol LeuT
Nc1ncnc2c1ncn2[C@@H]1O[C@H](COP(=O)(O)OP(=O)(O)O)[C@@H](O)[C@H]1O | CKMT1A (Homo sapiens, UniProt P12532, E264A) | substrate, Kinase-Glo luminescence | – | pH 7.0, reverse reaction, E226A mutant, together with: second substrate in excess | – | kcat | < 0.0001 s⁻¹
CC(C)(COP(=O)(O)OP(=O)(O)OC[C@H]1O[C@@H](n2cnc3c(N)ncnc32)[C@H](O)[C@@H]1OP(=O)(O)O)[C@@H](O)C(=O)NCCC(=O)NCCS | RNA cytidine acetyltransferase (Homo sapiens, UniProt Q9H0A0) | inhibitor | – | concentration not given | – | histone acetyltransferase activity | inhibited
O=c1ncccn1[C@@H]1O[C@H](CO)[C@@H](O)[C@H]1O | DNMT1 (Homo sapiens, UniProt P26358) | degrader, Western blot | MEC1 | 200 µM, 48 h | – | protein level reduction | 85 to 91%
CC1=NNC(=S)NC(=O)C1/N=N/c1ccc(S(N)(=O)=O)cc1 (centres unmarked) | bovine α-glucosidase | enzyme activity, inhibitor, glucose oxidase | – | 10 µg/mL, together with: maltose | – | inhibition | 22.739 ± 0.000673%
CCc1cc(NC(=O)COc2cc(Cl)ccc2Cl)n(C2CCOCC2)n1 | Kir3.1/Kir3.4 | thallium flux, activator | HEK293 | – | baseline: standard compound | Emax | 64%
C[N+](C)(C)C[C@H](O)CC(=O)O | Carnitine O-acetyltransferase (CRAT, Columba livia, UniProt P52826) | stopped-flow global fit | – | pH 7.8, ambient, ordered bi-bi mechanism | – | Ki | 490 µM
COc1cc(/C=C2\SC(=O)N(Cc3nc4ccccc4s3)C2=O)cc(OC)c1OC | AKR1B1 | enzyme activity, inhibitor | – | – | – | log IC50 | 2.43 log nM
Nc1ncnc2c1ncn2[C@@H]1O[C@H](COP(=O)(O)OP(=O)(O)OP(=O)(O)O)[C@@H](O)[C@H]1O | P2X purinoceptor 7 (P2rx7, Rattus norvegicus, UniProt Q64663, I214A) | ion current, agonist, two-electrode voltage clamp | Xenopus laevis oocytes | 2700 µM | baseline: highest concentration response | normalized current | 1 and 0.993 and 0.997
